{"data": "Results from different studies", "note": "Numbers after ± are the reported error.", "UniProt P41146, sequence (whole entry, looked up)": "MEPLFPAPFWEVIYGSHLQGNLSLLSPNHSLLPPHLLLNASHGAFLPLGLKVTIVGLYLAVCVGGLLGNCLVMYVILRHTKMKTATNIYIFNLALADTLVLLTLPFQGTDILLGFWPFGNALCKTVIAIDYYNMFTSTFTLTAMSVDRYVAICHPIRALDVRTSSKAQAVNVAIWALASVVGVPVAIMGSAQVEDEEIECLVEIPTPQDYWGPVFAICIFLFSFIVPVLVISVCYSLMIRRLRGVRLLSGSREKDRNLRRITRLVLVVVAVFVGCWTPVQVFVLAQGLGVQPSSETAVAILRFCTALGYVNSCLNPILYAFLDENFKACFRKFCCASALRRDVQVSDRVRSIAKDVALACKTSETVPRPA"}
{"Compound": "Cc1cc(/C=C/C#N)cc(C)c1-n1cnc2cnc(Nc3ccc(C#N)cc3)nc21", "tested on": "HIV-1", "assay": "viral replication, single-round infection", "system": "RT mutant L234I", "quantity": "EC50", "value": "0.1 ± 0.04 nM"}
{"Compound": "CCCCCCCCCCCCCCCC(=O)N[C@@H](CCC(=O)NCCCC[C@H](NC(=O)[C@H](CC(=O)O)NC(=O)[C@H](CO)NC(=O)[C@@H](NC(=O)[C@H](Cc1ccccc1)NC(=O)[C@@H](NC(=O)CNC(=O)[C@H](CCC(N)=O)NC(=O)[C@H](C)NC(=O)[C@@H](Cc1ccc(O)cc1)NC(C)=O)[C@@H](C)O)[C@@H](C)O)C(=O)N[C@@H](CO)C(=O)N[C@@H](CCCCN)C(=O)N[C@@H](Cc1ccc(O)cc1)C(=O)N[C@@H](CC(C)C)C(=O)N[C@@H](CC(=O)O)C(=O)N[C@@H](CCC(=O)O)C(=O)N[C@@H](CCCNC(=N)N)C(=O)N[C@@H](C)C(=O)N[C@@H](C)C(=O)N[C@@H](CCC(N)=O)C(=O)N[C@@H](CC(=O)O)C(=O)N[C@@H](Cc1ccccc1)C(=O)N[C@H](C(=O)N[C@@H](CCC(N)=O)C(=O)N[C@@H](Cc1c[nH]c2ccccc12)C(=O)N[C@@H](CC(C)C)C(=O)N[C@@H](CC(C)C)C(=O)N[C@@H](CCC(=O)O)C(=O)NCC(=O)NCC(=O)N1CCC[C@H]1C(=O)N[C@@H](CO)C(=O)N[C@@H](CO)C(=O)NCC(=O)N[C@@H](C)C(=O)N1CCC[C@H]1C(=O)N1CCC[C@H]1C(=O)N1CCC[C@H]1C(=O)N[C@@H](CO)C(N)=O)C(C)C)C(=O)O", "system": "Wistar rat, male, plasma", "setting": "intravenous, 0.02 mg/kg", "quantity": "dose-normalised Cmax", "value": "15600 ng/mL per mg/kg"}
{"Compound": "Cc1cc(O)cc(C)c1C[C@H](N)C(=O)NCC(=O)NCC(=O)N[C@@H](Cc1ccccc1)C(=O)N[C@H](C(=O)NCC(=O)N[C@@H](C)C(=O)N[C@@H](CCCNC(=N)N)C(=O)N[C@@H](CCCCN)C(=O)N[C@@H](CO)C(=O)N[C@@H](C)C(=O)N[C@@H](CCCNC(=N)N)C(=O)N[C@@H](CCCCN)C(N)=O)[C@@H](C)O", "tested on": "Nociceptin receptor, with β-arrestin 2 (OPRL1, Homo sapiens, UniProt P41146)", "assay": "β-arrestin 2 recruitment, agonist, BRET", "system": "HEK293 cells", "setting": "15 min, room temperature", "quantity": "EC50", "value": "7.08 nM"}
{"Compound": "Cc1oc2nc1C(=O)N[C@](C)(C(=O)OC(C)C)c1nc(c(C)o1)C(=O)N[C@](C)(C(=O)OC(C)C)c1nc(c(C)o1)C(=O)N[C@]2(C)C(=O)OC(C)C", "tested on": "SARS-CoV-2", "system": "Vero E6, NRC-03-nhCoV", "scale": "baseline: CC50 over IC50", "quantity": "selectivity index", "value": 20.8}
{"Compound": "CC[C@H](C)C(=O)N1CCC(NC(=O)Nc2ccc(OC(F)(F)F)c(F)c2)CC1", "system": "healthy volunteers", "setting": "oral, 0.5 mg single dose", "quantity": "subjects with COVID-19 TEAE", "value": "0%"}
{"Compound": "CC[C@H](C)[C@H](NC(=O)[C@H](CCCCN)NC(=O)[C@H](CCCCN)NC(=O)[C@H](CC(C)C)NC(=O)[C@H](Cc1c[nH]c2ccccc12)NC(=O)CN)C(=O)NCC(=O)N[C@@H](CCCCN)C(=O)N[C@@H](CCCCN)C(=O)N[C@H](C(=O)N[C@@H](CCC(=O)O)C(=O)N[C@@H](CCCNC(=N)N)C(=O)N[C@H](C(=O)NCC(=O)N[C@@H](CCC(N)=O)C(=O)N[C@@H](Cc1c[nH]cn1)C(=O)N[C@H](C(=O)N[C@@H](CCCNC(=N)N)C(=O)N[C@@H](CC(=O)O)C(=O)N[C@@H](C)C(=O)N[C@H](C(=O)N[C@H](C(=O)N[C@@H](CCC(N)=O)C(=O)N[C@H](C(=O)N[C@H](C(=O)NCC(=O)N[C@H](C(=O)N[C@@H](C)C(=O)N[C@@H](CCC(N)=O)C(=O)N[C@@H](CCC(N)=O)C(=O)N[C@@H](C)C(=O)N[C@@H](C)C(=O)N[C@@H](CC(N)=O)C(=O)N[C@H](C(=O)N[C@@H](C)C(=O)N[C@@H](C)C(=O)N[C@H](C(=O)N[C@@H](CC(C)C)C(=O)N[C@@H](CCCCN)C(N)=O)[C@@H](C)O)C(C)C)C(C)C)[C@@H](C)CC)[C@@H](C)O)[C@@H](C)CC)[C@@H](C)O)[C@@H](C)O)C(C)C)[C@@H](C)CC", "system": "human erythrocytes", "quantity": "minimal haemolytic concentration", "value": "1020 mg/L"}
{"Compound": "Cc1cc(/C=C/C#N)cc(C)c1Nc1nc(Nc2ccc(C#N)cc2)ncc1N", "tested on": "HIV-1", "assay": "viral replication, single-round infection", "system": "RT mutant V111A", "quantity": "EC50", "value": "0.2 ± 0.1 nM"}
{"Compound": "CC[C@H](C)[C@H](NC(=O)[C@H](CCCCN)NC(=O)[C@H](Cc1ccc(O)cc1)NC(=O)[C@H](CCC(N)=O)NC(=O)[C@H](Cc1c[nH]cn1)NC(=O)[C@@H](NC(=O)[C@H](Cc1ccccc1)NC(=O)[C@H](Cc1c[nH]cn1)NC(=O)[C@@H](NC(=O)[C@@H](NC(=O)CNC(=O)[C@H](CCCNC(=N)N)NC(=O)[C@H](Cc1c[nH]c2ccccc12)NC(=O)[C@H](CC(C)C)NC(=O)[C@H](CO)NC(=O)[C@H](CCC(=O)O)NC(=O)[C@H](CC(C)C)NC(=O)[C@H](CCC(=O)O)NC(=O)[C@H](CC(N)=O)NC(=O)[C@H](CC(C)C)NC(=O)[C@H](CC(=O)O)NC(=O)[C@H](CO)NC(=O)[C@H](CCC(=O)O)NC(=O)[C@@H](NC(=O)[C@H](CC(C)C)NC(=O)[C@H](CCC(N)=O)NC(=O)[C@H](CCC(=O)O)NC(=O)[C@H](CCC(=O)O)NC(=O)[C@H](CC(C)C)NC(=O)[C@@H]1CCCN1C(=O)[C@@H](N)Cc1ccccc1)[C@@H](C)O)[C@@H](C)O)[C@@H](C)O)C(C)C)C(=O)N[C@@H](CCSC)C(=O)N1CCC[C@H]1C(=O)N[C@@H](Cc1ccccc1)C(=O)N[C@@H](CCCNC(=N)N)C(=O)N[C@@H](CCCCN)C(=O)N[C@@H](CC(C)C)C(=O)N[C@H](C(=O)N[C@@H](Cc1ccccc1)C(=O)N[C@@H](CCCCN)C(=O)N[C@@H](CCCNC(=N)N)C(=O)N[C@@H](CCCNC(=N)N)C(=O)N[C@@H](CCCCN)C(=O)N[C@@H](CC(N)=O)C(N)=O)C(C)C", "tested on": "RAW264.7", "assay": "WST-8", "setting": "up to 25 µg/mL, 24 h", "scale": "baseline: water", "quantity": "viability", "value": "no effect"}
{"Compound": "CC[C@H](C)[C@H](NC(=O)[C@H](CO)NC(=O)[C@H](Cc1ccc(O)cc1)NC(=O)[C@H](CC(=O)O)NC(=O)[C@H](CO)NC(=O)[C@@H](NC(=O)[C@H](Cc1ccccc1)NC(=O)[C@@H](NC(=O)CNC(=O)[C@H](CCC(=O)O)NC(=O)[C@@H](C)NC(=O)[C@@H](N)Cc1ccc(O)cc1)[C@@H](C)O)[C@@H](C)CC)C(=O)N[C@@H](C)C(=O)N[C@@H](CCSC)C(=O)N[C@@H](CC(=O)O)C(=O)N[C@@H](CCCCN)C(=O)N[C@H](C(=O)N[C@@H](Cc1c[nH]cn1)C(=O)N[C@@H](CCC(N)=O)C(=O)N[C@@H](CCC(N)=O)C(=O)N[C@@H](CC(=O)O)C(=O)N[C@@H](Cc1ccccc1)C(=O)N[C@H](C(=O)N[C@@H](CC(N)=O)C(=O)N[C@@H](Cc1c[nH]c2ccccc12)C(=O)N[C@@H](CC(C)C)C(=O)N[C@@H](CC(C)C)C(=O)N[C@@H](C)C(=O)N[C@@H](CCC(N)=O)C(=O)N[C@@H](CCCCN)C(=O)N1CCC[C@H]1C(=O)N[C@@H](CO)C(=O)N[C@@H](CO)C(=O)NCC(=O)N[C@@H](C)C(=O)N1CCC[C@H]1C(=O)N1CCC[C@H]1C(=O)N1CCC[C@H]1C(=O)N[C@@H](CO)C(N)=O)C(C)C)[C@@H](C)CC", "system": "human kidney membranes", "setting": "5 h, 37 °C", "quantity": "metabolic stability", "value": "stable"}
{"Compound": "CCCCCCCCCCCCCCCC(=O)N[C@@H](CCC(=O)NCCOCCOCCC(=O)NCCOCCOCCC(=O)NCCCC[C@H](NC(=O)[C@H](CC(=O)O)NC(=O)[C@H](CC(C)C)NC(=O)[C@H](Cc1ccc(O)cc1)NC(=O)[C@H](CCCCN)NC(=O)[C@H](CO)NC(=O)[C@H](Cc1ccc(O)cc1)NC(=O)[C@H](CC(=O)O)NC(=O)[C@H](CO)NC(=O)[C@@H](NC(=O)[C@H](Cc1ccccc1)NC(=O)[C@@H](NC(=O)CNC(=O)[C@H](CCC(N)=O)NC(=O)[C@@H](CO)NC(=O)[C@@H](N)Cc1c[nH]cn1)[C@@H](C)O)[C@@H](C)O)C(=O)N[C@@H](CCCNC(=N)N)C(=O)N[C@@H](CCCNC(=N)N)C(=O)N[C@@H](C)C(=O)N[C@@H](CCC(N)=O)C(=O)N[C@@H](CC(=O)O)C(=O)N[C@@H](Cc1ccccc1)C(=O)N[C@H](C(=O)N[C@@H](CCC(N)=O)C(=O)N[C@@H](Cc1c[nH]c2ccccc12)C(=O)N[C@@H](CC(C)C)C(=O)N[C@@H](CC(C)C)C(=O)N[C@@H](CC(N)=O)C(=O)N[C@H](C(=O)NCC(=O)NCC(=O)N1CCC[C@H]1C(=O)N[C@@H](CO)C(=O)N[C@@H](CO)C(=O)NCC(=O)N[C@@H](C)C(=O)N1CCC[C@H]1C(=O)N1CCC[C@H]1C(=O)N1CCC[C@H]1C(=O)N[C@@H](CO)C(N)=O)[C@@H](C)O)C(C)C)C(=O)O", "system": "rhesus monkey, male, plasma", "setting": "subcutaneous, 20 µg/kg, day 28, toxicokinetics, mean", "quantity": "AUC(0-t)", "value": "0.0939 µg·h/mL"}
{"Compound": "CC[C@H](C)[C@H](NC(=O)[C@H](CCCN)NC(=O)[C@H](CC(=O)O)NC(=O)[C@H](CC(C)C)NC(=O)C(C)(CC(C)C)NC(=O)[C@@H](NC(=O)[C@H](CO)NC(=O)[C@H](Cc1ccc(O)cc1)NC(=O)[C@H](CC(=O)O)NC(=O)[C@H](CO)NC(=O)[C@@H](NC(=O)[C@H](Cc1ccccc1)NC(=O)[C@@H](NC(=O)CNC(=O)[C@H](CCC(=O)O)NC(=O)C(C)(C)NC(=O)[C@@H](N)Cc1ccc(O)cc1)[C@@H](C)O)[C@@H](C)CC)[C@@H](C)CC)C(=O)N[C@@H](Cc1c[nH]cn1)C(=O)N[C@@H](CCC(N)=O)C(=O)NC(C)(C)C(=O)N[C@@H](CC(=O)O)C(=O)N[C@@H](Cc1ccccc1)C(=O)N[C@H](C(=O)N[C@@H](CCC(=O)O)C(=O)N[C@@H](Cc1ccc(O)cc1)C(=O)N[C@@H](CCCCNC(=O)COCCOCCNC(=O)COCCOCCNC(=O)CC[C@H](NC(=O)CCCCCCCCCCCCCCCCCCC(=O)O)C(=O)O)C(=O)N[C@@H](CC(C)C)C(=O)N[C@@H](CCC(=O)O)C(=O)NCC(=O)NCC(=O)N1CCC[C@H]1C(=O)N[C@@H](CO)C(=O)N[C@@H](CO)C(=O)NCC(=O)N[C@@H](C)C(=O)N1CCC[C@H]1C(=O)N1CCC[C@H]1C(=O)N1CCC[C@H]1C(=O)N[C@@H](CO)C(N)=O)C(C)C (stereo partly drawn)", "system": "human, plasma", "setting": "subcutaneous, 25 mg, single dose, healthy volunteers", "quantity": "AUC(0-inf)", "value": "1280 µg·h/mL"}
{"Compound": "C[C@@H]1CCCN1CCc1cc2cc(-c3ccc(C#N)cc3)ccc2o1", "tested on": "J774A.1", "assay": "alamarBlue", "quantity": "CC50", "value": "68500 ± 13300 nM"}
{"note": "Excerpt of the above:"}
{"Compound": "Cc1cc(/C=C/C#N)cc(C)c1Nc1nc(Nc2ccc(C#N)cc2)ncc1N", "tested on": "HIV-1", "assay": "viral replication, single-round infection", "system": "RT mutant V111A", "quantity": "EC50", "value": "0.2 ± 0.1 nM"}
